# Measured values from different studies.
# Numbers after ± are the reported error.
# BCHE: Cholinesterase (BCHE, Equus caballus, UniProt P81908)
# Chain of UniProt P81908 (whole entry, looked up): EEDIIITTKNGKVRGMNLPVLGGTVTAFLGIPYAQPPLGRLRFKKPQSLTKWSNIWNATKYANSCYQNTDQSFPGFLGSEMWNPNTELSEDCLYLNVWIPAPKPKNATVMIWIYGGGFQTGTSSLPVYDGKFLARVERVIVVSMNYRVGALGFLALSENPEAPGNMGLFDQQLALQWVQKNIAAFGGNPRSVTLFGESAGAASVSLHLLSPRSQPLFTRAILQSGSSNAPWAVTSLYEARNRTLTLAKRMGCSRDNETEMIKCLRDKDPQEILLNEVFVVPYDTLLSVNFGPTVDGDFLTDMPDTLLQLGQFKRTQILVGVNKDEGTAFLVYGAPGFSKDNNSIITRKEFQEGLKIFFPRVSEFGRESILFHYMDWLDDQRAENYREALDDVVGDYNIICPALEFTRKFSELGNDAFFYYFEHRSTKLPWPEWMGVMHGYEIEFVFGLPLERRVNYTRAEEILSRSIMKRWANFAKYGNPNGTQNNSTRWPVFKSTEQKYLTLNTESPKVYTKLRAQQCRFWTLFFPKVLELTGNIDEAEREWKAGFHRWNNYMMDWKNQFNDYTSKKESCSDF
# Chain of UniProt P54292 (whole entry, looked up): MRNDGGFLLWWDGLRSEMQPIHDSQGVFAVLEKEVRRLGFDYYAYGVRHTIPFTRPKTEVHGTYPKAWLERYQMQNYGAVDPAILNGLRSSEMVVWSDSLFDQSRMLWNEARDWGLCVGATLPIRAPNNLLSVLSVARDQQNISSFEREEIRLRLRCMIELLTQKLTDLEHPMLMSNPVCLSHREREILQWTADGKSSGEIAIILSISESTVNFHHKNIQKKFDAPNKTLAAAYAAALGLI
# Chain of UniProt O88704 (whole entry, looked up): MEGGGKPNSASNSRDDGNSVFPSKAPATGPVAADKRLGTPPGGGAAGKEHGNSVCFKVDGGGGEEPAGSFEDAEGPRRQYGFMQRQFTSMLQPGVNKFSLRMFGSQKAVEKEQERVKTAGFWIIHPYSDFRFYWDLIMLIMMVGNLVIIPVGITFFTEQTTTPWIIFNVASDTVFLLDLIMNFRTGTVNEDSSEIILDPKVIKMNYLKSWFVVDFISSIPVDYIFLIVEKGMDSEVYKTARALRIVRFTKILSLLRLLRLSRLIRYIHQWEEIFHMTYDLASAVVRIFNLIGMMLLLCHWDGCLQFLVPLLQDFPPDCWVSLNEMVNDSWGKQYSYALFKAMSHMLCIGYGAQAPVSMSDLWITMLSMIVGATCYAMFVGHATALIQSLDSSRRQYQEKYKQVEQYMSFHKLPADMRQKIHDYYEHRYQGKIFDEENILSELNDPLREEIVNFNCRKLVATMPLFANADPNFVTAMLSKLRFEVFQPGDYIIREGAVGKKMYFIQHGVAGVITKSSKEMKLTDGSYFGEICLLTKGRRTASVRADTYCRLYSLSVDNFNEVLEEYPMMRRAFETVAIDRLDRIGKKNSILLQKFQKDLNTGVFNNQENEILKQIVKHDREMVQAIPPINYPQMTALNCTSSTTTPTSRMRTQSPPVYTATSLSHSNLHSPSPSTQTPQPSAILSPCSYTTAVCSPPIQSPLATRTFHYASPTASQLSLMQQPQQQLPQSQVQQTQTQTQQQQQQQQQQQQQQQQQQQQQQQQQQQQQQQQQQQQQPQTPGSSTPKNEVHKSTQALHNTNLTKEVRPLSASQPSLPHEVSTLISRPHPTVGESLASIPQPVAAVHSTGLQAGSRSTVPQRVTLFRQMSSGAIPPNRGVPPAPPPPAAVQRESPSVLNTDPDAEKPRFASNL
# Chain of UniProt P33527 (whole entry, looked up): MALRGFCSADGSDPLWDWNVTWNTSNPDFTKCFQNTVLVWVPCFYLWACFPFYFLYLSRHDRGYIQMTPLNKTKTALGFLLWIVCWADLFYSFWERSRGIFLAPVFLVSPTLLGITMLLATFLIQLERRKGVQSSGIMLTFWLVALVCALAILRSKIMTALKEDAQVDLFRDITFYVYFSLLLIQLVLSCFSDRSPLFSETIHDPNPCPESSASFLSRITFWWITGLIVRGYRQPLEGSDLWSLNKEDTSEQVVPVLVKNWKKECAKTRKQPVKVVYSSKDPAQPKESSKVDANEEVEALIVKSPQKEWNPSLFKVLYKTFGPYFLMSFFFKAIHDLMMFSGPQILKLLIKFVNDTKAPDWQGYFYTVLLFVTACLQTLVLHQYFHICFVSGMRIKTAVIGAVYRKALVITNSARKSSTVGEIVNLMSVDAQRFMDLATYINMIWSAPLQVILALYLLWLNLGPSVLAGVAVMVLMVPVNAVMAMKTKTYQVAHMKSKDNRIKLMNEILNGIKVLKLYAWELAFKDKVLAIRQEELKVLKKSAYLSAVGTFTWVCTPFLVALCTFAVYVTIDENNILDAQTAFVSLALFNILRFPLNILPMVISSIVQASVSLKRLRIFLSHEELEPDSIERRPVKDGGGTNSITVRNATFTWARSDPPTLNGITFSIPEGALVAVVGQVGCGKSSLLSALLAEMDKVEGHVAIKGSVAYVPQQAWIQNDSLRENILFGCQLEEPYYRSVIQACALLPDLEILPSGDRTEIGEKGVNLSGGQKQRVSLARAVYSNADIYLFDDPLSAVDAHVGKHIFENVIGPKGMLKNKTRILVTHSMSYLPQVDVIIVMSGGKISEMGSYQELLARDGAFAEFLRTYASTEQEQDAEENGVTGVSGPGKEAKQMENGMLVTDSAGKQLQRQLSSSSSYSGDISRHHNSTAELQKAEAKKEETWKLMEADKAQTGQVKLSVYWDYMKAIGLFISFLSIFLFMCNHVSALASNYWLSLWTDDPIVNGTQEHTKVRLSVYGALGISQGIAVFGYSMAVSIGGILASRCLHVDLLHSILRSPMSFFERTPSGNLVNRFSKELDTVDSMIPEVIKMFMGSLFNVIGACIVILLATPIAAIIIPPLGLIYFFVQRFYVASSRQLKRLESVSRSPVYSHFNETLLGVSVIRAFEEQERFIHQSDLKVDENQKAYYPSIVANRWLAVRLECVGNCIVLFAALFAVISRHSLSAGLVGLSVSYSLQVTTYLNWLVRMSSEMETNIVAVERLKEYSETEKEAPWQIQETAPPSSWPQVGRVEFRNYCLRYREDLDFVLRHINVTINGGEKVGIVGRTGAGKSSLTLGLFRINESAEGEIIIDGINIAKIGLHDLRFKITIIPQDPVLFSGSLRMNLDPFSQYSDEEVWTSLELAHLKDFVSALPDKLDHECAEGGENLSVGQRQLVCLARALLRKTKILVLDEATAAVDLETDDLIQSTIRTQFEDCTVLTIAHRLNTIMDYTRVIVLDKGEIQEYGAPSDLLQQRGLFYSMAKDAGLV
# Chain of UniProt Q9UGI6 (whole entry, looked up): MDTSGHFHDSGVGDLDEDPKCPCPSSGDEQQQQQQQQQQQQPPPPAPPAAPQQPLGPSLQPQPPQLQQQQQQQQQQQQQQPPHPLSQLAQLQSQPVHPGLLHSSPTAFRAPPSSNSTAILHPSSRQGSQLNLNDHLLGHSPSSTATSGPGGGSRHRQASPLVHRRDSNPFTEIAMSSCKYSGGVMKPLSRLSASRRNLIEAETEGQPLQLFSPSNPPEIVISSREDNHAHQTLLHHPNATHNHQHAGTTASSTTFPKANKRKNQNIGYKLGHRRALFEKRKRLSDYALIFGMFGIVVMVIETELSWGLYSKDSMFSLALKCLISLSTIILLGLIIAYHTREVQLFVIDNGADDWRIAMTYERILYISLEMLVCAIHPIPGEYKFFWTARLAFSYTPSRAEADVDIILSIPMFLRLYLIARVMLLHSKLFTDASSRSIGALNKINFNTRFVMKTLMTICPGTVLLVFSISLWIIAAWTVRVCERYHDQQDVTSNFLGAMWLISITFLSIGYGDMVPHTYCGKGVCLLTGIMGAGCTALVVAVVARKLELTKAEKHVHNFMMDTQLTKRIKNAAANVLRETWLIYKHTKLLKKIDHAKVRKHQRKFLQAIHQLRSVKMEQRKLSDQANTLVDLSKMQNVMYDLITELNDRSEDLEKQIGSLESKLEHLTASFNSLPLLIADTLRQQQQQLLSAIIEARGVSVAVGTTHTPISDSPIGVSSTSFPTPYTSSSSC
# Chain of UniProt P39135 (whole entry, looked up): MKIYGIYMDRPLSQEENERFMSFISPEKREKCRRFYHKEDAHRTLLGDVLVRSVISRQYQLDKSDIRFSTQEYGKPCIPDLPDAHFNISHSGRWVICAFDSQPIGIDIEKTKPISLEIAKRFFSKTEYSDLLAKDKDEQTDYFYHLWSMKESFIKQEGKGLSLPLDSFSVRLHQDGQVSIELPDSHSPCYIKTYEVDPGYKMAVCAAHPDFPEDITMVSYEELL
# Chain of UniProt Q2PAY2 (whole entry, looked up): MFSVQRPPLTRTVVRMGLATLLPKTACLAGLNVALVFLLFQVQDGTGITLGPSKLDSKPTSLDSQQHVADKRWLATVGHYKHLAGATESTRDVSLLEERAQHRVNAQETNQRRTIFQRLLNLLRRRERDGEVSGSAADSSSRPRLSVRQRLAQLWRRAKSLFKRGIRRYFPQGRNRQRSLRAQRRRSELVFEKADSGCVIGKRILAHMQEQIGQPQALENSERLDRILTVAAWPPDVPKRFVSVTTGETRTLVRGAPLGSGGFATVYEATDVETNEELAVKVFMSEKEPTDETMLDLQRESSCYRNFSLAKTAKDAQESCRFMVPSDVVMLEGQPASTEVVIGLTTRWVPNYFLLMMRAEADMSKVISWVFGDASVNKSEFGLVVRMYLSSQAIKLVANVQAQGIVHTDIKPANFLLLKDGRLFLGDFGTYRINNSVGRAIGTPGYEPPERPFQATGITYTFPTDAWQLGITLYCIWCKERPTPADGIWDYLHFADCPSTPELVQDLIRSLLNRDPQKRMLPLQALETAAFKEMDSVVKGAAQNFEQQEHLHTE
SMILES,tested on,test,test system,conditions,endpoint,value
O=C1Nc2ccccc2/C1=C/c1cnc[nH]1,"Putative glycogen synthase kinase (Leishmania major, UniProt Q4QE15)","enzyme activity, inhibitor",,"90 min, 30 °C, added: ATP 2 µM",IC50,18.3 µM
CN[C@@](C)(C[18F])C(=O)O,DU-145 tumour model,,"host not given, kidney","1 h, tumour-bearing",tracer uptake,6 %ID/g
O=C(Cc1ccc2ccccc2c1)NC1CCOC1=O (centres unmarked),"rhlR (Pseudomonas aeruginosa, UniProt P54292)","reporter gene, antagonist",,,IC50,20.7 µM
CC1=C(C(=O)NC(=O)c2cnccn2)C(c2ccc(Cl)cc2)NC(=O)N1 (centres unmarked),BCHE,,,,IC50,4.75 ± 0.01 µM
COc1cc2c(cc1O)CC[n+]1cc3c(OC)c(OC)ccc3c(C)c1-2,"DRD3 (Homo sapiens, UniProt P35462)","calcium mobilization, antagonist, FLIPR",HEK293T with Galpha15,"10 min preincubation, D3 receptor, added: dopamine at EC50",IC50,2.4 µM
Oc1nccc2nc(NC3CCNC3)nc(Nc3cc(Cl)cc(Cl)c3)c12 (centres unmarked),"ROP18 (Toxoplasma gondii, UniProt Q2PAY2)","enzyme activity, inhibitor",,,IC50,> 10 µM
O=C(O)C(=O)C=C(O)c1cn(Cc2ccc(F)cc2)c2cc(N3CCCC3)ccc2c1=O,"Gag-Pol polyprotein, integrase (gag-pol, Human immunodeficiency virus 1, UniProt P12497)","enzyme activity, inhibitor",,,IC50,0.495 µM
O=C([O-])[C@H]([O-])[C@@H]([O-])C(=O)[O-].O=C([O-])[C@H]([O-])[C@@H]([O-])C(=O)[O-].[K+].[K+].[Sb+3].[Sb+3],"Thioredoxin glutathione reductase (Schistosoma mansoni, UniProt Q962Y6)","enzyme activity, inhibitor, absorbance",,with preincubation,IC50,0.02 µM
CNCCCNC(=O)O[C@H]1CC[C@@]2(C)[C@H](CC[C@@H]3[C@@H]2CC[C@]2(C)[C@@H](c4ccc(=O)oc4)CC[C@]32O)C1,"Sodium/potassium-transporting ATPase subunit alpha-1, with beta-1 subunit (Atp1a1, Rattus norvegicus, UniProt P06685)","pump current, inhibitor, two-electrode voltage clamp",Xenopus oocytes expressing β1,-60 mV,IC50,0.107 µM
CO/C=C(/C(=O)OC)c1ccccc1Oc1cc(Oc2ccccc2C#N)ncn1,ERRα (human),"reporter gene, antagonist, luciferase reporter qHTS",,,IC50,4.86 µM
O=C(CNC(=S)NN=Cc1ccc([N+](=O)[O-])cc1)c1ccccc1O,BCHE,"enzyme activity, inhibitor, Ellman method",,added: butyrylthiocholine iodide,IC50,270.26 ± 0.19 µM
c1ccc2c(c1)CCC[C@H]2Nc1nc2ccccc2[nH]1,"Small conductance calcium-activated potassium channel protein 3, open state (Homo sapiens, UniProt Q9UGI6)",cell-based,,,IC50,7 µM
O=C(O)Cc1ccc(OC(=O)NCCCCCn2ccc3ccc(F)cc32)cc1,BCHE,"enzyme activity, inhibitor, HPLC",,,IC50,> 10 µM
C[C@@H]1C[C@H]2[C@@H]3CCC4=CC(=O)C=C[C@]4(C)[C@@]3(Cl)[C@@H](O)C[C@]2(C)[C@@]1(OC(=O)c1ccco1)C(=O)CCl,"ABCC1 (Homo sapiens, UniProt P33527)","efflux, inhibitor",SupT1-Vin overexpressing ABCC1,added: SYTO 13 100 nM,IC50,1 ± 0.8 µM
Nc1ncnc2c1ncn2[C@H]1C[C@H](OP(=O)(O)O)[C@@H](COP(=O)(O)O)O1,"sfp (Bacillus subtilis, UniProt P39135)","phosphopantetheinylation, inhibitor, fluorescence polarization",,"45 min, pH 7.6, 10% DMSO, added: VibB 10 µM and rhodamine-CoA 5 µM",IC50,11 ± 1 µM
CCCCCCCCCCCCC/C=C/[C@@H](O)[C@@H](N)COP(=O)(O)OCC[N+](C)(C)C,"RYR1 (Oryctolagus cuniculus, UniProt P11716)","[3H]ryanodine binding, radioligand binding",skeletal SR vesicles,"oxidizing, no calmodulin, added: 5 mM GSSG, 50 µM free Ca2+",IC50,25.5 ± 4 µM
CC(C)c1cccc(C(C)C)c1S,"Hcn1 (Mus musculus, UniProt O88704)","channel gating (V1/2 shift), inhibitor, two-electrode voltage clamp",Xenopus oocytes,,IC50,22.2 ± 1.8 µM
